# Published values of several laboratories.
# Numbered parts are unrelated; each lists some results of a single study.

# Block 1 — method: universal PBM; molecule type: double-stranded DNA, one strand shown; medium: in vitro; tested at: not given; reading: higher = stronger binding
# Target: Sal-like protein 4, full length isoform B (SALL4, Homo sapiens, UniProt Q9UJQ4-2, residues 1-616)
# Setting: 8-mer, flanks averaged, mean of replicates
# Construct (chain): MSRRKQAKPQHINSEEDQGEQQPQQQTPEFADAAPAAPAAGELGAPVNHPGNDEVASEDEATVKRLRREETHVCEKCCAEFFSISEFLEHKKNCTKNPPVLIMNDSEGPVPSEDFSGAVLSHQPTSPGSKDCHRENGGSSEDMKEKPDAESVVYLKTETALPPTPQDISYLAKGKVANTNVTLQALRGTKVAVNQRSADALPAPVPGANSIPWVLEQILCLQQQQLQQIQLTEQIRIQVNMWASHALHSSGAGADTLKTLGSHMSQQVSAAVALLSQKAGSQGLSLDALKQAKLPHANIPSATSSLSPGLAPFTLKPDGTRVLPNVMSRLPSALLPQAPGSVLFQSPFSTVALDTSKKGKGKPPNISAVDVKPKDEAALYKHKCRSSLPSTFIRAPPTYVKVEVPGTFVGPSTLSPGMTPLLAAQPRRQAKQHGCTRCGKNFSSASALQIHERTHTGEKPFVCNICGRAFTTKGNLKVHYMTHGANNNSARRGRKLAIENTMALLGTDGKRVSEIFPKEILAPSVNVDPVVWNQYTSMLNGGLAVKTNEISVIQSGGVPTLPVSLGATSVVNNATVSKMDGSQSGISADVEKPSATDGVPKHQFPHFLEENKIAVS
Oligonucleotide,E-score
CCGTGGAC,-0.247
ACGGTCTG,-0.211
CTTCTTTA,0.14
AGACCTGA,-0.0374
CGTGTGAG,-0.201
AAGGCCGT,-0.202
AACAAGGC,-0.0818
CCGAACAA,0.0522
GTAATGCA,0.134
AAGAGGAC,-0.105

# Block 2 — method: protein-binding microarray; molecule type: double-stranded DNA, one strand shown; medium: in vitro; tested at: 0.8 µM; setting: whole 60-bp probe, no competitor; reading: higher = stronger binding
# Target: Centromere-binding protein 1, full length, N-terminal tag (CBF1, Saccharomyces cerevisiae, UniProt P17106, residues 1-351)
# UniProt P17106, sequence (whole entry, looked up): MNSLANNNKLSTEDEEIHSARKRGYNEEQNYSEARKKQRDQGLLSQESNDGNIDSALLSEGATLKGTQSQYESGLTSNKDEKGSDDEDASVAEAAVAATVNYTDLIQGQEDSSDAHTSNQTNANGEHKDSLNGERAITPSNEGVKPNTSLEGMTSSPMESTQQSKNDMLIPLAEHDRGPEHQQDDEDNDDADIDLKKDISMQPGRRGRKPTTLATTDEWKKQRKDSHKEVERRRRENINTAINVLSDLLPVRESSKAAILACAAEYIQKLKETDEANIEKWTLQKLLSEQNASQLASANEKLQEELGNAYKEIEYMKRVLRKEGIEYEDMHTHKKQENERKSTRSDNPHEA
Oligonucleotide,fluorescence intensity
CTAACGGCTAATAAAAACGTGAACCTGTTTTAATTCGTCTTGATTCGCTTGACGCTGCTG,711 a.u.
GAAGTAATCAATAATGGCGTGTAACAGTATAATTAGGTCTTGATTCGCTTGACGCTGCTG,514 a.u.
GAACTCATTGTAAAACACGCGGACTGCTTCAAATAGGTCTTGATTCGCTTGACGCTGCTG,561 a.u.
GAATAGACGATGACTCGCGTGCCAAATAGAATTTAGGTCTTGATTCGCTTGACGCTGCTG,569 a.u.
GAACACGACGAACGTGATGCCCGCAAAACGTAATAGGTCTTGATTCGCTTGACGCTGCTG,856 a.u.
TGTACGAAGCTATATAACGTGGTTATAGTAGTTAGGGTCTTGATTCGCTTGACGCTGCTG,594 a.u.

# Block 3 — method: protein-binding microarray; molecule type: double-stranded DNA, one strand shown; medium: in vitro; tested at: 2540 nM top; setting: 60-bp whole probe; together with: salmon DNA 0.4 mg/ml; baseline: random background probes; reading: higher = stronger binding; all sequences stand within: GCCTAGCAC … GTCTTGATTCGCTTGACGCTGCTG
# Target: Interferon regulatory factor 3, full length, phosphomimetic (IRF3, Homo sapiens, UniProt Q14653, residues 1-427, S386D/S396D/S398D/S402D/T404D/S405D)
# Target sequence (chain): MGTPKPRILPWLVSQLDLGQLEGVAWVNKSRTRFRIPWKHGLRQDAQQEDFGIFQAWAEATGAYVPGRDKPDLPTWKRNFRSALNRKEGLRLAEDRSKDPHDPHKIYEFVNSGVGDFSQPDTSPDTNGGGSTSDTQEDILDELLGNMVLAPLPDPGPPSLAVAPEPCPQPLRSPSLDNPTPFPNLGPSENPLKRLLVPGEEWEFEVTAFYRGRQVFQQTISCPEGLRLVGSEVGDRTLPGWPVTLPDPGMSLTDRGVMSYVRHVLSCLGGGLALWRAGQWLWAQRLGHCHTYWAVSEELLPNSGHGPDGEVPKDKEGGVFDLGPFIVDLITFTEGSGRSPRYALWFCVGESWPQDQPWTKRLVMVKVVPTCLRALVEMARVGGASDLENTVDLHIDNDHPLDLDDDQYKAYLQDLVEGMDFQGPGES
Oligonucleotide,fitted relative affinity [z-score]
TCATTTTTTTTCCTAATACTGTGCTAG,2.1
TGAGGTTTCGACTATCGGTTAGTGCTA,2.01
GACGGACTGCTTATCCTGAAGTGCTAG,-0.412
TTAGAACTGAGTCTCGAATAGTGCTAG,-0.408
TTAGAACTGGGGACTGGATTCGTGCTA,-0.818
AAAAAAAATGGAAATCTACCCGTGCTA,-0.3
TTCATTCCTGATCTCTGGTCGTGCTAG,0.817
GACGGACTGCTTATGCTGACGTGCTAG,-0.572
GACGGACTGGACTATGGGGACGTGCTA,-0.629

# Other studies, line by line
Molecule,target,test,system,conditions,how to read,measurement,result
"PhoQ, residues 284 288 289 292 302 303 AMDMFI","PhoP, residues 12 14 15 18 19 NQGLL (Escherichia coli, UniProt P23836)","Sort-seq, measured: YFP reporter",E. coli,"PhoQ-PhoP variant library, together with: 10 µM Mg2+","baseline: high Mg2+ state, higher = stronger signaling",fold induction,1.77

# For quick reference, copied from above (block 3):
Oligonucleotide,fitted relative affinity [z-score]
TCATTTTTTTTCCTAATACTGTGCTAG,2.1
TTAGAACTGAGTCTCGAATAGTGCTAG,-0.408
